Published values of several laboratories.
Protocols differ between the studies behind these lines. “And” joins repeats or separate records; there may be more than shown. Numbers after ± are the reported error.
CASP7: Caspase-7 (CASP7, Homo sapiens, UniProt P55210)

For `CC(=O)N[C@@H](CC(C)C)C(=O)N[C@@H](CCC(=O)O)C(=O)N[C@H](C(=O)N[C@@H](CC(=O)O)C(=O)COC(=O)c1c(C)cccc1C)C(C)C`, the kinact/KI was 97000 M⁻¹ s⁻¹ (CASP7; enzyme activity, inhibitor).
For `CCn1cc(-c2cccc(C(F)(F)F)c2)c2sc(C(=N)NC3CCS(=O)(=O)CC3)cc2c1=O`, the ΔTm was -0.8 °C (PHIP, BD2 (Homo sapiens, UniProt Q8WWQ0)).
For `CNC(=O)C(Cc1c[nH]c2ncccc12)NC(=O)C(OC)c1ccc(Oc2ccccc2)cc1` (stereo not drawn), the selectivity ratio was 21 (Discoidin domain-containing receptor 2 (DDR2, Homo sapiens, UniProt Q16832); competition binding; reference: DDR2 over DDR1).
For `CC(C)Oc1cc(Cl)ccc1CNc1cc(-c2ccccc2)nc2ncnn12`, the cAMP luminescence was 24500 a.u. and 4860 a.u. and 9570 a.u. and 26900 a.u. and 6600 a.u. (G-protein coupled receptor 3 (GPR3, Homo sapiens, UniProt P46089); cAMP reporter; human cells; 300 nM; higher is more cAMP).
With `COC(=O)Cc1cc2c(cc1C(=O)c1ccccc1)OCO2` the current amplitude was 970 ± 83 pA (Glutamate receptor 2 (Gria2, Rattus norvegicus, UniProt P19491); glutamate-evoked current, whole-cell patch clamp; HEK-293T; concentration not given, pH 7.4, holding potential -60 mV, added: 10 mM glutamate).
For `Cc1cccc(C2(C(=O)Nc3c[nH]nc3-c3ccccc3)CC2)c1`, “number of kinases hit” read 0 (human kinase panel; binding, KINOMEscan; 10000 nM, %Ctrl below 1).
`O=C(N1CCCC1)n1cc(-c2ccc(-c3ccccc3)cc2)nn1` has an activity ratio of 0.96 (Acylamino-acid-releasing enzyme (Apeh, Mus musculus, UniProt Q8R146); enzyme activity, inhibitor, competitive ABPP-SILAC; mouse T-cells; concentration not given, 4 h, treated in situ; reference: DMSO).
With `N#Cc1ccc(CNC(=O)c2cc(-c3ccccc3)n(-c3ccccc3)n2)cc1` the inhibition was 30% (Genome polyprotein, NS2B-NS3 protease (dengue virus type 2, UniProt P29990); reporter gene; HeLa; 12.5 µM).
With `CC(=O)N[C@H](C(=O)N[C@@H](CCCC(=O)O)C(=O)N[C@@H](CCC1CCCCC1)C(=O)N[C@@H](CC(=O)O)C(=O)COC(=O)c1c(C)cccc1C)C(C)(C)C` the kinact/KI was 7000 M⁻¹ s⁻¹ (CASP7; enzyme activity, inhibitor).
For `C=CC(=O)N1CCCC(n2c(=O)c3ncccc3n(Cc3ccc(Oc4ccccc4)cc3)c2=O)C1` (stereo not drawn), “melting temperature shift” read -3.56 (CKB (Homo sapiens, UniProt P12277); thermal proteome profiling; cell proteome; unit not given; reference: vehicle).
`O=c1[nH]cnc2c(CNCCCP(=O)(O)O)c[nH]c12` gave a Kii of 940 ± 70 nM (Hypoxanthine-guanine phosphoribosyltransferase (Trypanosoma cruzi, UniProt Q4DGA3); inhibitor, inhibition pattern versus hypoxanthine; pH 8.3, 37 °C, added: PRPP 1 mM fixed).
`N#CN1CC[C@H](C(=O)Nc2nc3c(s2)CN(C(=O)CN=[N+]=[N-])CC3)C1` — result for “total spectral count”: 9 (Keratin, type II cytoskeletal 6C (KRT6C, Homo sapiens, UniProt P48668); affinity probe, click pull-down LC-MS/MS; HEK293T).
`CCCCCC=CC=C1C(=O)C=CC1CC=CCCCC(=O)O` (stereo not drawn) — result for “isoTOP-ABPP competition ratio”: 2.6 (Anaphase-promoting complex subunit 16 (ANAPC16, Homo sapiens, UniProt Q96DE5); competitive isoTOP-ABPP, refers to: C10orf104 cysteine peptide; Ramos soluble proteome; 100 µM, added: iodoacetamide probe; reference: DMSO over compound-treated, higher = stronger cysteine blockade).
For `CCOC(=O)C(CC)(CCCSCCCCCCN)NC(=O)c1ccc(C2CC2)c(Cc2ccc(F)cc2)n1` (stereo not drawn), the Ki ratio was 75 (Cannabinoid receptor 2 (CNR2, Homo sapiens, UniProt P34972); radioligand binding; reference: CB1 over CB2 (human)).
`CN(C)C/C=C/C(=O)Nc1ccc2nc(NCCCCCN(C)C)nc(NCCCCCCN(C)C)c2c1` has an inhibition of 52% (Histone-lysine N-methyltransferase 2A (KMT2A, Homo sapiens, UniProt Q03164); enzyme activity, inhibitor, radiometric; 50 µM).

Excerpt of the above:
`N#CN1CC[C@H](C(=O)Nc2nc3c(s2)CN(C(=O)CN=[N+]=[N-])CC3)C1` — result for “total spectral count”: 9 (Keratin, type II cytoskeletal 6C (KRT6C, Homo sapiens, UniProt P48668); affinity probe, click pull-down LC-MS/MS; HEK293T).
`CN(C)C/C=C/C(=O)Nc1ccc2nc(NCCCCCN(C)C)nc(NCCCCCCN(C)C)c2c1` has an inhibition of 52% (Histone-lysine N-methyltransferase 2A (KMT2A, Homo sapiens, UniProt Q03164); enzyme activity, inhibitor, radiometric; 50 µM).
